Measurements pooled from the literature.
Numbered parts are unrelated; each lists some results of a single study. Substitutions count along the parent as printed.

Block 1
Target: ABI1, truncated, D143A, DHFR fusion (Arabidopsis thaliana, UniProt P49597)
Technique: DHFR PCA, dose-response
Sample: yeast
Setting: Hill fit, not affinity, not high confidence
Added: (+)-ABA, dose series
Direction: lower = more sensitive
Endpoint: ABA EC50
Parent: PYL1, truncated, DHFR fusion (Arabidopsis thaliana, UniProt Q8VZS8); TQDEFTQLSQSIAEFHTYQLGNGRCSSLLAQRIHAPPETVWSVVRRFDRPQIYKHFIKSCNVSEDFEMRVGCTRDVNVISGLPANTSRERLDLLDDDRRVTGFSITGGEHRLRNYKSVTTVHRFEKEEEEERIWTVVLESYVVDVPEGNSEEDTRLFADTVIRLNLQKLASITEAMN
Change = L82N; value = 657 µM
Change = V145Y; value = 215 µM
Change = E89C; value = 8.5 µM
Change = S117M; value = 2460 µM
Change = H110V; value = 267 µM
Change = E89T; value = 292 µM
Change = L112A; value = 799 µM
Change = L112S; value = 8.63 µM
Change = N165C; value = 703 µM
Change = P50W; value = 374 µM

Block 2
Target: Ras GTPase-activating protein-binding protein 1, C-terminal RGG region (G3BP1, Homo sapiens, UniProt Q13283)
Chain of UniProt Q13283 (whole entry, looked up): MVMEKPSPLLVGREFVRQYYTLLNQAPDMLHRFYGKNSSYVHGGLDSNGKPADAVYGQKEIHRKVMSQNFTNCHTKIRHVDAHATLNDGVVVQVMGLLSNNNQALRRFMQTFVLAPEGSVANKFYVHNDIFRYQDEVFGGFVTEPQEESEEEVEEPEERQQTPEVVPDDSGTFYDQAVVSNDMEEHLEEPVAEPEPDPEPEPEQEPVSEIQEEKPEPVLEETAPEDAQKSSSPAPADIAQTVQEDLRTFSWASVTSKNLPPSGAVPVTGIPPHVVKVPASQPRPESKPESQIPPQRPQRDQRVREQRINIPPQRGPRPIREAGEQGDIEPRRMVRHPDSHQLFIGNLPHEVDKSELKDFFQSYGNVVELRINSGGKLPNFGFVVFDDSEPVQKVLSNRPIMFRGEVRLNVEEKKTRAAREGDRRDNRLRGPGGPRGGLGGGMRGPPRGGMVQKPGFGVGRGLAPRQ
Technique: RNA Bind-n-Seq
Molecule type: RNA
Sample: in vitro
Concentration: 1 µM
Setting: whole 134-nt RNA, ends assumed
Added: 150 mM KCl
Reference: input library
Direction: higher = stronger binding
Endpoint: log2 enrichment
Shared flanks, not repeated: GGGAGUUCUACAGUCCGACGAUC … UGGAAUUCUCGGGUGUCAAGG
Oligonucleotide = CCUGUGCUACACAUCGUAUGUACCGAAUCGGGGAAAAAAGGGGAAAAAAGGGAAAAAAGGGAAAGUAUUAUGUUACGCCGUUCGGAUCUG; value = -1.52
Oligonucleotide = UAACUUUAGAGGAGGAUCUGAUGGAUAUGGCAGUGGACGUGGAUUUGGGUAUGGCUAUAAUGGGUAUGGAGGAGGACCUGGAGGUGGCAA; value = -0.702
Oligonucleotide = AAGUCCUGUGCUACACAUCGUAUGUACCGAAUCGGUUUUUUUGGAAAAAAAGGUGGAAAGUAUUAUGUUACGCCGUUCGGAUCUGCACUU; value = -2.1
Oligonucleotide = GUCCUGUGCUACACAUCGUAUGUACCGAAUCGGAAAAAAGGGAAAAAAGGAAAAAAGGAAAGUAUUAUGUUACGCCGUUCGGAUCUGCAC; value = -1.4
Oligonucleotide = CUCAAGUCCUGUGCUACACAUCGUAUGUACCGAAUCGGAAAGGUUUGGUUUGGAAAGUAUUAUGUUACGCCGUUCGGAUCUGCACUUCCA; value = -1.38
Oligonucleotide = CACAGACAACACGCACCCACACAGACACAGAGGGAAGGGGUUGGGAUGGGGACAAGGUGCACAGCAGGGCGGGGUAGGACCCCAGCCCCU; value = 1.13
Oligonucleotide = UGGCCCUGGUGGCAUCCGGGGAGGAAGAGGUGGCCUCAUGGAUCGUGGUGGUCCCGGUGGAAUGUUCAGAGGUGGCCGUGGUGGAGACAG; value = 2.02
Oligonucleotide = CAAGUCCUGUGCUACACAUCGUAUGUACCGAAUCGGUUUGGAAAAAAAGGUUUGGAAAGUAUUAUGUUACGCCGUUCGGAUCUGCACUUC; value = -2.2
Oligonucleotide = UCCUGUGCUACACAUCGUAUGUACCGAAUCGGGGAAAAAGGGGAGGGGUUUUUUUGGGGAAAGUAUUAUGUUACGCCGUUCGGAUCUGCA; value = 1.66

Block 3
Target: CCNE2, cyclin fold, Cln2 fusion (human)
Technique: yeast growth competition, sequencing
Sample: yeast
Setting: strong parent motif
Reference: not given
Direction: higher = stronger binding
Endpoint: normalised enrichment score
Parent: CDKN1B docking peptide (human); PSACRNLFGPVDH
Change = PSACRNCFGPVDH [L7C]; value = -0.44
Change = PSACRNLFYPVDH [G9Y]; value = 1.22
Change = PSACRHLFGPVDH [N6H]; value = 0.565
Change = ISACRNLFGPVDH [P1I]; value = 1.25
Change = PSACRNLFGPVDV [H13V]; value = 0.965
Change = PSACRNLFGPVCH [D12C]; value = 1.57
Change = PSACRNLFGTVDH [P10T]; value = 1.85

Single results of other studies
Molecule = PhoQ, residues 284 288 289 292 302 303 SSCLAV; target = PhoP, residues 12 14 15 18 19 AQALL (Escherichia coli, UniProt P23836); test = Sort-seq, refers to: YFP reporter; test system = E. coli; conditions = PhoQ-PhoP variant library, added: 10 µM Mg2+; how to read = reference: high Mg2+ state, higher = stronger signaling; endpoint = fold induction; value = 12.6

Some of these lines once more (block 2):
Oligonucleotide = CCUGUGCUACACAUCGUAUGUACCGAAUCGGGGAAAAAAGGGGAAAAAAGGGAAAAAAGGGAAAGUAUUAUGUUACGCCGUUCGGAUCUG; value = -1.52
Oligonucleotide = UCCUGUGCUACACAUCGUAUGUACCGAAUCGGGGAAAAAGGGGAGGGGUUUUUUUGGGGAAAGUAUUAUGUUACGCCGUUCGGAUCUGCA; value = 1.66
